# Results gathered from unrelated publications.
# A part holds a random share of what one study measured. Values joined by “and” are separate records of one study, mostly repeats; a detail may differ. pKd: −log10 of the molar value.

# Sample 1
# Target: Dihydroxy-acid dehydratase, chloroplastic (DHAD, Arabidopsis thaliana, UniProt Q9LIR4)
# Method: microscale thermophoresis
# Target sequence (Q9LIR4 35-608): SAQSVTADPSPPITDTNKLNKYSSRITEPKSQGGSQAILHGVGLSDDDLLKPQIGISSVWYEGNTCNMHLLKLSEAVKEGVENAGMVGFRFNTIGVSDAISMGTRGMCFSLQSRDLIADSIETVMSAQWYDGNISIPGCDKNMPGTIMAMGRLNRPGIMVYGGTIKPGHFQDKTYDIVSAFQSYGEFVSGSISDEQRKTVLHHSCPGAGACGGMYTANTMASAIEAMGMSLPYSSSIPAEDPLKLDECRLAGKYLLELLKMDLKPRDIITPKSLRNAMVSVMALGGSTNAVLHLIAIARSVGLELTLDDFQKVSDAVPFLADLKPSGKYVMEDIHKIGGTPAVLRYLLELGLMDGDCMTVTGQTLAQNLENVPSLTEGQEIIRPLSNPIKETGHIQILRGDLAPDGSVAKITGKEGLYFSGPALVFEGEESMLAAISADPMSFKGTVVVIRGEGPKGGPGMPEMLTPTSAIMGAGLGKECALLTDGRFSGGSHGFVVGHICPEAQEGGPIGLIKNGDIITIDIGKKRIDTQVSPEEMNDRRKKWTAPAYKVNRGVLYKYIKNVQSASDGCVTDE
SMILES,pKd
O=C(O)C1(O)Oc2cc(Br)ccc2N(Cc2ccccc2)C1=O (stereo not shown),5.90
O=C(O)C1(O)Oc2ccccc2N(Cc2ccccc2)C1=O (stereo not shown),3.47
Cc1ccc2c(c1)OC(O)(C(=O)O)C(=O)N2Cc1ccccc1 (stereo not shown),5.59
CC(C)=CCN1C(=O)C(O)(C(=O)O)Oc2cc(F)ccc21 (stereo not shown),3.60
CC(C)(C)c1ccc(Oc2ccc3c(c2)OC(O)(C(=O)O)C(=O)N3Cc2ccccc2)cc1 (stereo not shown),4.19
CN1C(=O)C(O)(C(=O)O)Oc2cc(F)ccc21 (stereo not shown),3.66

# Sample 2
# Structure (SMILES): Cc1ncsc1-c1ccc(C(CO)NC(=O)C2CC(O)CN2C(=O)C(C(C)C)n2cc(-c3ccc(COc4c(-c5c(C)c(F)cc6[nH]ncc56)c(C5CC5)cc5c(N6CC7CC6CN7)nc(OC6CCOCC6)nc45)cc3)nn2)cc1 (stereo not shown)
# Read-out: cell growth or viability
# Method: ATP luminescence
# Time: 6 days
cell line,tested at,viability
COLO 320,30 nM,80.8% and 102% and 94.8% and 82.4%
T24,3 nM,102% and 101% and 95% and 98.7%
PaTu 8902,10 nM,141% and 103% and 101% and 100%
SK-CO-1,1 nM,106% and 103% and 102% and 93.9%
PaTu 8902,10 µM,35.9% and 33% and 35.8% and 33.6%
LCLC-97TM1,1 µM,45.4% and 61.8% and 40.4% and 33.6%
PaTu 8902,30 nM,97.6% and 101% and 102% and 110%
GP2d,10 nM,36.1% and 37.1% and 39% and 42.9%
HT-29,1 nM,118% and 100% and 119% and 90.4%
GP2d,0.3 µM,25.6% and 26.1% and 28.1% and 21.9%

# Sample 3
# SMILES: C[C@@H]1CN(c2ccc(-c3cc(C(=O)NCCOCCOCCOCCOCCOCCOCCNC(=O)/C=C/c4[nH]cc(C(=O)N[C@@H](CC(N)=O)c5ccc(F)c(Cl)c5)c4-c4ccc(Cl)cc4F)ccc3F)cc2NC(=O)c2ccc(F)cc2C(F)(F)F)C[C@H](C)N1C
# Read-out: thermal unfolding
# Method: differential scanning fluorimetry
# Tested at: 5.5 µM
# Reading: higher = more unfolded
# WDR5: WD repeat-containing protein 5 (WDR5, Homo sapiens, UniProt P61964)
# DCAF1: DDB1- and CUL4-associated factor 1 (DCAF1, Homo sapiens, UniProt Q9Y4B6)
# Sequence of UniProt Q9Y4B6 (whole entry, looked up): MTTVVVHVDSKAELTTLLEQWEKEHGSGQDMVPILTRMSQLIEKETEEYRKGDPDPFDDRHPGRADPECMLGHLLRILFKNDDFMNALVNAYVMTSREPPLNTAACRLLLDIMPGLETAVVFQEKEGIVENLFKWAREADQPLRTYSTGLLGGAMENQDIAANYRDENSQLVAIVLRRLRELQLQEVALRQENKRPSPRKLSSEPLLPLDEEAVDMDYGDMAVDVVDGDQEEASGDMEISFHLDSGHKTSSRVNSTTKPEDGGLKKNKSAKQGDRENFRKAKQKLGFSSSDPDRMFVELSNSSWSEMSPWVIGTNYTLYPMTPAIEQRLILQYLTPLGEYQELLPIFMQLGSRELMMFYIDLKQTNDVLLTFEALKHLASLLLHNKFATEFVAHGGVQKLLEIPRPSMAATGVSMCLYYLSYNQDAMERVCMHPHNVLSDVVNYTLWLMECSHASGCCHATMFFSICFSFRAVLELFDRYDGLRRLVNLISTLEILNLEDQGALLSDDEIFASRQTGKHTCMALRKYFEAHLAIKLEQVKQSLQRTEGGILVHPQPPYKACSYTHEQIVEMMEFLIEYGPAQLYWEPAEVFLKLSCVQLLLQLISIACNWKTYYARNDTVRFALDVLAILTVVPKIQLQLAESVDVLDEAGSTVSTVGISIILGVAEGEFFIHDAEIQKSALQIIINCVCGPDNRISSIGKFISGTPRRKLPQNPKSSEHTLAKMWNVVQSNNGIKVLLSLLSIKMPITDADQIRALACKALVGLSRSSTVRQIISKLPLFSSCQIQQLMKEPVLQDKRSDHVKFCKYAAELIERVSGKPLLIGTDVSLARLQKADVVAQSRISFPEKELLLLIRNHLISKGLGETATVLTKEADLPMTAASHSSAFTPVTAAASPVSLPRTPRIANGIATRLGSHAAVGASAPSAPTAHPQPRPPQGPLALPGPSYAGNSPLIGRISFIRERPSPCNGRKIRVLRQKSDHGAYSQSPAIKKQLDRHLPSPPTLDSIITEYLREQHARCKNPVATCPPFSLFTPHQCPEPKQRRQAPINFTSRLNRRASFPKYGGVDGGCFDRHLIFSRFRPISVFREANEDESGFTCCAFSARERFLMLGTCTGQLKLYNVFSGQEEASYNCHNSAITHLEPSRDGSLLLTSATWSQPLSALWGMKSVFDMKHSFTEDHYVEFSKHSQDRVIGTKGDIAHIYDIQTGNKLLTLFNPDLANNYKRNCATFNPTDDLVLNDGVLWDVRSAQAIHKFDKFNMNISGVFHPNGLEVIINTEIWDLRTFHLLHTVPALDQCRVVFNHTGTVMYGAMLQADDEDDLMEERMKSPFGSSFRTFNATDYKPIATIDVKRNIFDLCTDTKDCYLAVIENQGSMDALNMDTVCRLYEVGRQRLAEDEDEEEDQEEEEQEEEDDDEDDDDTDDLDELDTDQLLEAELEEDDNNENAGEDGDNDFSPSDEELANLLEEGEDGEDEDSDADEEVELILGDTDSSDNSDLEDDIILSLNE
target,temperature,SYPRO Orange fluorescence [a.u.]
WDR5,72.81 °C,39100
DCAF1,32.2 °C,9040
DCAF1,93.41 °C,29800
DCAF1,93.81 °C,29500
DCAF1,48.8 °C,17100
DCAF1,68.41 °C,49900
WDR5,46.2 °C,14900
WDR5,57.01 °C,15900
WDR5,56.21 °C,16200
DCAF1,37.4 °C,10900
WDR5,90.81 °C,53800

# Single results of other studies
SMILES,method,sample,pH,endpoint,result
CCN1/C(=C/C=C2\CCCC(/C=C/C3=[N+](CC)c4ccccc4C3(C)C)=C2NCCCCCCCCN2CCC(Nc3nc4ccccc4n3Cc3ccc(F)cc3)CC2)C(C)(C)c2ccccc21,dynamic light scattering,PBS,pH 6.5,particle diameter,460 nm

# For quick reference, copied from above (sample 2):
cell line,tested at,viability
LCLC-97TM1,1 µM,45.4% and 61.8% and 40.4% and 33.6%
PaTu 8902,10 µM,35.9% and 33% and 35.8% and 33.6%
GP2d,0.3 µM,25.6% and 26.1% and 28.1% and 21.9%
COLO 320,30 nM,80.8% and 102% and 94.8% and 82.4%
PaTu 8902,30 nM,97.6% and 101% and 102% and 110%
